Measured values of several laboratories.
Organism: Klebsiella pneumoniae

| Compound | assay | system | setting | MIC |
| --- | --- | --- | --- | --- |
| CCn1c(-c2ccc(Br)cc2)c(-c2ccc(Br)cc2)n(CC)c1=[Se] | broth microdilution | carbapenem-resistant BAA-1705 | 24 h | > 40 µM |
| N=C(N)NCCC[C@@H]1NC(=O)[C@H](CCCNC(=N)N)NC(=O)[C@@H](CCCNC(=N)N)NC(=O)[C@H](C(c2ccccc2)c2ccccc2)NC(=O)[C@H](C(c2ccccc2)c2ccccc2)NC(=O)[C@H](C(c2ccccc2)c2ccccc2)NC(=O)[C@H](CCCNC(=N)N)NC1=O | – | ATCC 700603, ESBL SHV-18 | – | 64 µg/mL |
| CC[C@H](C)[C@H](NC(=O)[C@@H](CCCNC(=N)N)NC(=O)[C@H](CCCNC(=N)N)NC(=O)[C@@H]1CCCN1C(=O)[C@@H]1CCCN1C(=O)[C@H](CCCNC(=N)N)NC(=O)[C@@H]1CCCN1C(=O)[C@H](CCCNC(=N)N)NC(=O)[C@@H]1CCCN1C(=O)[C@H](CC(C)C)NC(=O)[C@H](Cc1ccc(O)cc1)NC(=O)[C@H](CCCNC(=N)N)NC(=O)[C@@H]1CCCN1C(=O)[C@H](CCCCN)NC(=O)[C@H](CC(=O)O)NC(=O)[C@@H](N)C(C)C)C(=O)N[C@@H](Cc1ccc(O)cc1)C(=O)N[C@@H](CC(N)=O)C(=O)N[C@H](CCCNC(=N)N)C(N)=O | broth microdilution | DSM 681 | 18 h, 37 °C, 25% MHB2 | 8 µg/mL |
| CSCC[C@H](NC=O)C(=O)N[C@@H](CCCNC(=N)N)C(=O)N[C@H](C(=O)NCC(=O)N[C@@H](CC(N)=O)C(=O)N[C@@H](C)C(=O)N[C@@H](CC(N)=O)C(=O)NCC(=O)N1CCN(c2cc3c(cc2F)c(=O)c(C(=O)O)cn3C2CC2)CC1)[C@@H](C)O | broth dilution | ATCC 27736 | – | 16 µM |
| CCCCCCCCCCCCCCCCCCn1cc(CN(CCC(=O)NCCN(CCC(=O)NCCN(CCC(=O)NCCN(C)C)CCC(=O)NCCN(C)C)CCC(=O)NCCN(CCC(=O)NCCN(C)C)CCC(=O)NCCN(C)C)CCC(=O)NCCN(CCC(=O)NCCN(CCC(=O)NCCN(C)C)CCC(=O)NCCN(C)C)CCC(=O)NCCN(CCC(=O)NCCN(C)C)CCC(=O)NCCN(C)C)nn1 | – | ATCC 2146 NDM-1, LB broth | 18 h | > 96 µg/mL |
| CC[C@H](C)[C@H](NC(=O)[C@@H](CCCNC(=N)N)NC(=O)[C@H](CCCNC(=N)N)NC(=O)[C@@H]1CCCN1C(=O)[C@@H]1CCCN1C(=O)[C@H](CCCNC(=N)N)NC(=O)[C@H](Cc1c[nH]c2ccccc12)NC(=O)[C@H](CCCNC(=N)N)NC(=O)[C@@H]1CCCN1C(=O)[C@H](CC(C)C)NC(=O)[C@H](Cc1ccc(O)cc1)NC(=O)[C@@H]1CCCN1C(=O)[C@@H]1CCCN1C(=O)[C@H](CCCCN)NC(=O)[C@H](CC(=O)O)NC(=O)[C@@H](N)C(C)C)C(=O)N[C@@H](Cc1ccc(O)cc1)C(=O)N[C@@H](CC(N)=O)C(=O)N[C@H](CCCNC(=N)N)C(N)=O | broth microdilution | DSM 681 | 18 h, 37 °C, 25% MHB2 | 4 µg/mL |
| COc1ccc2ccc(O)c(/C=N/[C@H]3CCCC[C@H]3/N=C/c3ccc(C)cc3O)c2c1 | bacterial growth, broth microdilution | carbapenem-resistant clinical isolate | – | > 40 µM |
| CC1(C)[C@H](NC(=O)/C(=N\OC2(C(=O)O)CC2)c2nsc(N)n2)C(=O)N1OS(=O)(=O)O | agar dilution | 2146, NDM-1 | – | 32 µg/mL |
| CC[C@H](C)[C@H](NC(=O)[C@H](CCCCN)NC(=O)[C@H](CCCNC(=N)N)NC(=O)[C@H](Cc1c[nH]c2ccccc12)NC(=O)[C@@H](NC(=O)[C@H](CCCCN)NC(=O)[C@H](CCCNC(=N)N)NC(=O)[C@@H](NC(=O)[C@H](CCCNC(=N)N)NC(=O)[C@H](CCCCN)NC(=O)[C@H](CCCNC(=N)N)NC(=O)[C@H](CC(C)C)NC(=O)[C@H](CCCNC(=N)N)NC(=O)[C@H](CO)NC(=O)[C@H](Cc1ccccc1)NC(=O)[C@H](CCCNC(=N)N)NC(=O)CN)[C@@H](C)CC)C(C)C)C(=O)NCC(=O)N1CCC[C@H]1C(=O)N[C@H](C(=O)N[C@@H](C)C(=O)NCC(=O)N1CCC[C@H]1C(=O)N[C@H](C(=O)N[C@H](C(=O)NCC(=O)N[C@@H](Cc1c[nH]cn1)C(=O)N[C@@H](Cc1ccccc1)C(=O)NCC(=O)O)[C@@H](C)CC)[C@@H](C)CC)[C@@H](C)CC | CLSI agar dilution | ATCC 13883 | 20 h, 37 °C | 8 µg/mL |
| CCCCCCCC(=O)N[C@@H](CCN)C(=O)N[C@H](C(=O)N[C@@H](CCN)C(=O)N[C@H]1CCNC(=O)[C@H]([C@@H](C)O)NC(=O)[C@H](CCN)NC(=O)[C@H](CCN)NC(=O)[C@H](Cc2ccccc2F)NC(=O)[C@@H](CC(C)C)NC(=O)[C@H](CCN)NC1=O)[C@@H](C)O | broth microdilution | ATCC 13883, colistin-susceptible | – | 4 to 8 µg/mL |
| C#CCO/N=C(\C(=O)N[C@@H]1C(=O)N(OS(=O)(=O)O)C1(C)C)c1nsc(N)n1 | agar dilution | 2146, NDM-1 | – | > 64 µg/mL |
| CC[C@H](C)[C@H](NC(=O)[C@H](C)NC(=O)[C@@H](NC(=O)[C@H](CC(=O)O)NC(=O)[C@H](CCCCN)NC(=O)[C@H](CO)NC(=O)[C@@H](NC(=O)[C@H](CC(N)=O)NC(=O)[C@H](C)NC(=O)[C@@H](NC(=O)[C@H](CCC(=O)O)NC(=O)[C@H](CCCCN)NC(=O)[C@@H](NC(=O)[C@@H](NC(=O)[C@H](Cc1c[nH]cn1)NC(=O)[C@H](CCCCN)NC(=O)[C@@H](NC(=O)[C@H](CCCCN)NC(=O)[C@H](CCCCN)NC(=O)[C@@H](NC(=O)[C@H](CC(C)C)NC(=O)[C@H](CCCCN)NC(=O)[C@H](CC(N)=O)NC(=O)[C@H](Cc1ccccc1)NC(=O)[C@H](CCCNC(=N)N)NC(=O)[C@H](CCCCN)NC(=O)[C@H](CCCNC(=N)N)NC(=O)[C@H](Cc1ccccc1)NC(=O)CN)C(C)C)C(C)C)[C@@H](C)O)[C@@H](C)CC)[C@@H](C)O)C(C)C)C(C)C)C(=O)N[C@H](C(=O)N[C@@H](C)C(=O)NCC(=O)N[C@@H](CO)C(=O)NCC(=O)N[C@H](C(=O)N[C@@H](C)C(=O)N[C@H](C(=O)NCC(=O)N[C@@H](C)C(=O)N[C@@H](C)C(=O)N[C@@H](CCSC)C(N)=O)C(C)C)C(C)C)C(C)C | broth microdilution | RKI 19/16, CAMHB with 10% mouse serum | 150 mM NaCl | 1 µg/mL |
| CC[C@H](C)[C@H](NC(=O)[C@@H](CCCNC(=N)N)NC(=O)[C@H](CCCNC(=N)N)NC(=O)[C@@H]1CCCN1C(=O)[C@@H]1CCCN1C(=O)[C@H](CCCNC(=N)N)NC(=O)[C@@H]1CCCN1C(=O)[C@H](CCCNC(=N)N)NC(=O)[C@@H]1CCCN1C(=O)[C@H](CC(C)C)NC(=O)[C@H](Cc1ccccc1)NC(=O)[C@@H]1CCCN1C(=O)[C@@H]1CCCN1C(=O)[C@H](CCCCN)NC(=O)[C@H](CC(=O)O)NC(=O)[C@@H](N)C(C)C)C(=O)N[C@@H](Cc1ccc(O)cc1)C(=O)N[C@@H](CC(N)=O)C(=O)N[C@H](CCCNC(=N)N)C(N)=O | broth microdilution | DSM 681 | 18 h, 37 °C, 25% MHB2 | 4 µg/mL |
| C#CCOc1ccc(CN[C@@]2(C)C[C@H](O[C@H]3[C@H](Oc4c5cc6cc4Oc4ccc(cc4Cl)[C@@H](O)[C@@H](NC(=O)[C@@H](CC(C)C)NC)C(=O)N[C@@H](CC(N)=O)C(=O)N[C@H]6C(=O)N[C@H]4C(=O)N[C@H](C(=O)N[C@H](C(=O)NCC(N)=O)c6cc(O)cc(O)c6-c6cc4ccc6O)[C@H](O)c4ccc(c(Cl)c4)O5)O[C@H](CO)[C@@H](O)[C@@H]3O)O[C@@H](C)[C@H]2O)cc1OC | broth microdilution | ATCC 13883, cation-adjusted Mueller-Hinton broth | 18 to 20 h, 37 °C, 0.002% polysorbate 80 | > 128 µg/mL |
| CC1(C)[C@H](NC(=O)/C(=N\OC2(C(=O)O)CCCC2)c2csc(N)n2)C(=O)N1OS(=O)(=O)O | agar dilution | 2146, NDM-1 | – | 2 µg/mL |
| COc1ccc2ccc(O)c(/C=N/[C@H]3CCCC[C@H]3/N=C/c3cc(C(C)(C)C)cc(C(C)(C)C)c3O)c2c1 | bacterial growth, broth microdilution | carbapenem-resistant | – | > 40 µM |
| CCCCCCCC(=O)N[C@@H](CCN)C(=O)N[C@H](C(=O)N[C@@H](CCN)C(=O)N[C@H]1CCNC(=O)[C@H]([C@@H](C)O)NC(=O)[C@H](CCN)NC(=O)[C@H](CCN)NC(=O)[C@H](CCc2ccccc2)NC(=O)[C@@H](CC(C)C)NC(=O)[C@H](CCN)NC1=O)[C@@H](C)O | broth microdilution | ATCC 13883, colistin-susceptible | – | 1 to 2 µg/mL |
| N=C(N)NCCC[C@@H]1NC(=O)[C@H](CCCNC(=N)N)NC(=O)[C@@H](CCCNC(=N)N)NC(=O)[C@@H](CCCNC(=N)N)NC(=O)[C@@H](C(c2ccccc2)c2ccccc2)NC(=O)[C@@H](Cc2c[nH]c3ccccc23)NC(=O)[C@@H](C(c2ccccc2)c2ccccc2)NC1=O | – | ATCC BAA1705, KPC-2 carbapenem-resistant | – | > 64 µg/mL |
| CC[C@H](C)[C@H](NC(=O)[C@@H](CCCNC(=N)N)NC(=O)[C@H](CCCNC(=N)N)NC(=O)[C@H](C)NC(=O)[C@H](Cc1c[nH]c2ccccc12)NC(=O)[C@H](CCCNC(=N)N)NC(=O)[C@@H]1CCCN1C(=O)[C@H](CCCNC(=N)N)NC(=O)[C@@H]1CCCN1C(=O)[C@H](CC(C)C)NC(=O)[C@H](Cc1ccc(O)cc1)NC(=O)[C@@H]1CCCN1C(=O)[C@@H]1CCCN1C(=O)[C@H](CCCCN)NC(=O)[C@H](CC(=O)O)NC(=O)[C@@H](N)C(C)C)C(=O)N[C@@H](Cc1ccc(O)cc1)C(=O)N[C@@H](CC(N)=O)C(=O)N[C@H](CCCNC(=N)N)C(N)=O | broth microdilution | DSM 681 | 18 h, 37 °C, 25% MHB2 | 4 µg/mL |
| C=CCO/N=C(\C(=O)N[C@@H]1C(=O)N(S(=O)(=O)O)[C@H]1C)c1csc(N)n1 | agar dilution | 2146 NDM-1 | – | > 128 µg/mL |
| COc1ccc2ccc(O)c(/C=N/[C@H]3CCCC[C@H]3/N=C/c3cccc(C)c3O)c2c1 | bacterial growth, broth microdilution | carbapenem-resistant clinical isolate | – | > 40 µM |
| CC(=O)N[C@H](Cc1cccc(F)c1)C(=O)N[C@@H](CCN)C(=O)N[C@H](C(=O)N[C@@H](CCN)C(=O)N[C@H]1CCNC(=O)[C@H]([C@@H](C)O)NC(=O)[C@H](CCN)NC(=O)[C@H](CCN)NC(=O)[C@H](CC(C)C)NC(=O)[C@@H](Cc2ccccc2)NC(=O)[C@H](CCN)NC1=O)[C@@H](C)O | broth microdilution | ATCC 13883, colistin-susceptible | – | > 64 µg/mL |
| CC1(C)[C@H](NC(=O)/C(=N\OCc2cc(=O)c(O)cn2O)c2csc(N)n2)C(=O)N1OS(=O)(=O)O | agar dilution | 2146 NDM-1 | – | 1 µg/mL |

Some of these lines once more:
| Compound | assay | system | setting | MIC |
| --- | --- | --- | --- | --- |
| CCCCCCCCCCCCCCCCCCn1cc(CN(CCC(=O)NCCN(CCC(=O)NCCN(CCC(=O)NCCN(C)C)CCC(=O)NCCN(C)C)CCC(=O)NCCN(CCC(=O)NCCN(C)C)CCC(=O)NCCN(C)C)CCC(=O)NCCN(CCC(=O)NCCN(CCC(=O)NCCN(C)C)CCC(=O)NCCN(C)C)CCC(=O)NCCN(CCC(=O)NCCN(C)C)CCC(=O)NCCN(C)C)nn1 | – | ATCC 2146 NDM-1, LB broth | 18 h | > 96 µg/mL |
| CC[C@H](C)[C@H](NC(=O)[C@@H](CCCNC(=N)N)NC(=O)[C@H](CCCNC(=N)N)NC(=O)[C@@H]1CCCN1C(=O)[C@@H]1CCCN1C(=O)[C@H](CCCNC(=N)N)NC(=O)[C@H](Cc1c[nH]c2ccccc12)NC(=O)[C@H](CCCNC(=N)N)NC(=O)[C@@H]1CCCN1C(=O)[C@H](CC(C)C)NC(=O)[C@H](Cc1ccc(O)cc1)NC(=O)[C@@H]1CCCN1C(=O)[C@@H]1CCCN1C(=O)[C@H](CCCCN)NC(=O)[C@H](CC(=O)O)NC(=O)[C@@H](N)C(C)C)C(=O)N[C@@H](Cc1ccc(O)cc1)C(=O)N[C@@H](CC(N)=O)C(=O)N[C@H](CCCNC(=N)N)C(N)=O | broth microdilution | DSM 681 | 18 h, 37 °C, 25% MHB2 | 4 µg/mL |
